Experimental data pooled from the literature.
A part holds a random share of what one study measured.
UniProt Q9UL54, sequence (whole entry, looked up): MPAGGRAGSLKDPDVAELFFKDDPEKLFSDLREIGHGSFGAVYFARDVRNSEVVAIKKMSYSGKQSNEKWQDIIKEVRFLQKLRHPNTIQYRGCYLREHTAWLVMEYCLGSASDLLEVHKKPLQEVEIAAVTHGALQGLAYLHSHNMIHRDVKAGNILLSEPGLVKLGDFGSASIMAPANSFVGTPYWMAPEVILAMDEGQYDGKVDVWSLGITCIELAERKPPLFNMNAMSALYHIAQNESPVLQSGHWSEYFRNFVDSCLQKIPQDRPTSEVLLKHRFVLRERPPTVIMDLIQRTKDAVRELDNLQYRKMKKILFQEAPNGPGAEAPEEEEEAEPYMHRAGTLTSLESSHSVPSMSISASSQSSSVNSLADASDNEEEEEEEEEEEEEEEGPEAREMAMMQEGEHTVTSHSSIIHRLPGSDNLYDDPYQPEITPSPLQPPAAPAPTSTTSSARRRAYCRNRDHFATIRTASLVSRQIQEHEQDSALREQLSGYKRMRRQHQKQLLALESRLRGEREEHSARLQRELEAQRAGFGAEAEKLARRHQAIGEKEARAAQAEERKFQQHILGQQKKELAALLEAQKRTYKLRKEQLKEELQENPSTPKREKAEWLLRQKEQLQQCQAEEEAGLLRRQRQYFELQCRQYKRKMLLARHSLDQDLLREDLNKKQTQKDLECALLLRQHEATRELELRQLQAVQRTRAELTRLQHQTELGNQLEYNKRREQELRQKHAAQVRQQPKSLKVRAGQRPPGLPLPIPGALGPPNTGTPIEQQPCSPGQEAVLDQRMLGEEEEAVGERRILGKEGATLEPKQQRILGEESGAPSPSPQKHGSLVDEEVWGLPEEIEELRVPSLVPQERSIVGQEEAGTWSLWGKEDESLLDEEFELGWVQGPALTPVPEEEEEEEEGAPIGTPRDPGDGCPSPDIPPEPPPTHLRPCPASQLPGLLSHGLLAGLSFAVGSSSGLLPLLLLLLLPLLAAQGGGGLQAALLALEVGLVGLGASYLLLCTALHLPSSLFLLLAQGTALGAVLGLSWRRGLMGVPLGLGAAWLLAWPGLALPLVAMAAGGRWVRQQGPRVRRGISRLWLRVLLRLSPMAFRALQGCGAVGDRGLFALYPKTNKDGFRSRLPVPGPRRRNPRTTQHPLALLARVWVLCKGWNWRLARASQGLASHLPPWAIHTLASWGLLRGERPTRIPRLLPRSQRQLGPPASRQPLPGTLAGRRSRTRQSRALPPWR
UniProt Q8N5S9, sequence (whole entry, looked up): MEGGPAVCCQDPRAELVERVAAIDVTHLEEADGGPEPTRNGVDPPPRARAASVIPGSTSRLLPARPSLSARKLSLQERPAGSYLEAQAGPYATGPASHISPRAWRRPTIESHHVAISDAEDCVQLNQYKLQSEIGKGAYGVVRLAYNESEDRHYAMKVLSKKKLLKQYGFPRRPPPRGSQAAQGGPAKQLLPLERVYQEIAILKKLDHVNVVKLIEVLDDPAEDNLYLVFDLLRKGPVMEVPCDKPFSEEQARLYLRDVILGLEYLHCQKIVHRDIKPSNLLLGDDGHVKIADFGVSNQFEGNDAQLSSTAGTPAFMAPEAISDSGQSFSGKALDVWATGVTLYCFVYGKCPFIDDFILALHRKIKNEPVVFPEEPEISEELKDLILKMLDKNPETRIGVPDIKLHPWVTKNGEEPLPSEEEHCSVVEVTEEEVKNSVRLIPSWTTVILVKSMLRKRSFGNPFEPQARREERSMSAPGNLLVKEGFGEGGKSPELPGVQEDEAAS
UniProt O95819, sequence (whole entry, looked up): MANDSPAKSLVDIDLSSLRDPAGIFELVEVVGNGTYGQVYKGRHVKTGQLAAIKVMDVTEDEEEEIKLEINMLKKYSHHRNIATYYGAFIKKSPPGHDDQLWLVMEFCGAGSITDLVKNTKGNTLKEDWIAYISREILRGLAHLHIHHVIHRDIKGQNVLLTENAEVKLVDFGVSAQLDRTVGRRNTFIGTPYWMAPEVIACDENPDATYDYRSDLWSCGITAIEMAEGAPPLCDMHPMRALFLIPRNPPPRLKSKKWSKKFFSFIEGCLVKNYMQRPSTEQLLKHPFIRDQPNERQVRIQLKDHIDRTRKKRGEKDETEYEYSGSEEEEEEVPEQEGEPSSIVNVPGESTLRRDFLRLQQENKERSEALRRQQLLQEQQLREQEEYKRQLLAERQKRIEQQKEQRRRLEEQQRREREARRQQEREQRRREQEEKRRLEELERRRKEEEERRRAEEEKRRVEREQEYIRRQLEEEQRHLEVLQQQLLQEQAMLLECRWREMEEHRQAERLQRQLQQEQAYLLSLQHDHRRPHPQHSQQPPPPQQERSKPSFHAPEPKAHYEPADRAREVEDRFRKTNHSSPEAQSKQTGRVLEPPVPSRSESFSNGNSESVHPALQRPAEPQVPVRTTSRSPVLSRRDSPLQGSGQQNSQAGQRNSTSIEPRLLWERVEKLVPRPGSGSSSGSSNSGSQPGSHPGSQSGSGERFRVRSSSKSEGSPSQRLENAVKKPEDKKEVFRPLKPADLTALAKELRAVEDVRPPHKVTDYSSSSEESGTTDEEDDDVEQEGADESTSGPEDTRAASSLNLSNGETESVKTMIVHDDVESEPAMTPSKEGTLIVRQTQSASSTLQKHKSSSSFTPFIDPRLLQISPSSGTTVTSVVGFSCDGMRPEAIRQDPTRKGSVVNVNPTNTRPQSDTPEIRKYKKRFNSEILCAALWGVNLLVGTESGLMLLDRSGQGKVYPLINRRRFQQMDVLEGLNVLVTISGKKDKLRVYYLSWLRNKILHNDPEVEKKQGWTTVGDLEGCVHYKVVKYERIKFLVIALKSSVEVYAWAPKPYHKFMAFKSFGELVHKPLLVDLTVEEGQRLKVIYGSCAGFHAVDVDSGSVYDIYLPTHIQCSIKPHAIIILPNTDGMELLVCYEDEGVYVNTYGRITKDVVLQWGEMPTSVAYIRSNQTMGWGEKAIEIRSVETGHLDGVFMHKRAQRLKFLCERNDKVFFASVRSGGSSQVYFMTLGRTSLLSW
UniProt O75914, sequence (whole entry, looked up): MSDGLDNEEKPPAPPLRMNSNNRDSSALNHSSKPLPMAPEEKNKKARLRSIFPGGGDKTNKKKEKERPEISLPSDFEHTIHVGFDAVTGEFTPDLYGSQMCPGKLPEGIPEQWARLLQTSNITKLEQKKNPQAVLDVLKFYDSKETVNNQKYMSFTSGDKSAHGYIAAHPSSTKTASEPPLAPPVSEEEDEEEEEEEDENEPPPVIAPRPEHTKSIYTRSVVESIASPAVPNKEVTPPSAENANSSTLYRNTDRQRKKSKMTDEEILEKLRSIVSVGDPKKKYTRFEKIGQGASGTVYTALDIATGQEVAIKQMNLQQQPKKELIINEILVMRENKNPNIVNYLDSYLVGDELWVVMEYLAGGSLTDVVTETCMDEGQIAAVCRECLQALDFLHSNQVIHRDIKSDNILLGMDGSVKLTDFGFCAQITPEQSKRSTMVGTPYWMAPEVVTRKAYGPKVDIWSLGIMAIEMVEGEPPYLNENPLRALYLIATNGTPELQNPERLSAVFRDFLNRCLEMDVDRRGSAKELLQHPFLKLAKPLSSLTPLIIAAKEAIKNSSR
UniProt P45984, sequence (whole entry, looked up): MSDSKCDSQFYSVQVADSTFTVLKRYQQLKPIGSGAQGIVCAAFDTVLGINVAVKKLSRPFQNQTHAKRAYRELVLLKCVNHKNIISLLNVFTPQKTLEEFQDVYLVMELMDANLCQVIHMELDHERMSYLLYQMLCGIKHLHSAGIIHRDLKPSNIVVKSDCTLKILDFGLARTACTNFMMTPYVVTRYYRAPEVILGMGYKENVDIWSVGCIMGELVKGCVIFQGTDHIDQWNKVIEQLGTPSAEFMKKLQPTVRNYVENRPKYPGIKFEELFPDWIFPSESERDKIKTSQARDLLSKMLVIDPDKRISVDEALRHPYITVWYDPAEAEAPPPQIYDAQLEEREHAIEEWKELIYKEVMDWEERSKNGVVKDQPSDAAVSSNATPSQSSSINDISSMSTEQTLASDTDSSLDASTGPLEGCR

Series 1 — sample: plasma; measurement: geometric mean concentration
SMILES: COc1ccc(-c2c(Nc3ccccn3)[nH]c3c(C4=CCCCC4)c(-c4ccccc4)nn3c2=O)cc1
LC-MS/MS, item: S-adenosylmethionine; oral, 200 mg twice daily, 2 h, cycle 1 day 1: 10.1 ng/mL
item: methionine; human patients; 150 mg once daily, 0 h: 128000 ng/mL
item: methionine; human patients; 200 mg once daily, 6 h: 106000 ng/mL
item: methionine; human patients; 200 mg once daily, 4 h: 113000 ng/mL
item: S-adenosylmethionine; human patients; 150 mg once daily, 6 h: 18.8 ng/mL
item: S-adenosylmethionine; human patients; 150 mg once daily, 8 h: 18 ng/mL
LC-MS/MS, item: S-adenosylmethionine; oral, 50 mg once daily, 6 h, cycle 1 day 1: 19.2 ng/mL
item: methionine; human patients; 200 mg once daily, 0 h: 107000 ng/mL
item: methionine; human patients; 100 mg once daily, 0 h: 81400 ng/mL
item: S-adenosylmethionine; human patients; 150 mg once daily, 4 h: 20.3 ng/mL
LC-MS/MS, item: S-adenosylmethionine; oral, 50 mg once daily, 4 h, cycle 1 day 1: 21 ng/mL
item: S-adenosylmethionine; human patients; 200 mg once daily, 0 h: 15.3 ng/mL

Series 2 — read-out: chloride current; action: inhibitor; tested at: 10 µM; measurement: inhibition
Target: Anoctamin-1 (ANO1, Homo sapiens, UniProt Q5XXA6, del476-501)
UniProt Q5XXA6, sequence (whole entry, unmodified, looked up): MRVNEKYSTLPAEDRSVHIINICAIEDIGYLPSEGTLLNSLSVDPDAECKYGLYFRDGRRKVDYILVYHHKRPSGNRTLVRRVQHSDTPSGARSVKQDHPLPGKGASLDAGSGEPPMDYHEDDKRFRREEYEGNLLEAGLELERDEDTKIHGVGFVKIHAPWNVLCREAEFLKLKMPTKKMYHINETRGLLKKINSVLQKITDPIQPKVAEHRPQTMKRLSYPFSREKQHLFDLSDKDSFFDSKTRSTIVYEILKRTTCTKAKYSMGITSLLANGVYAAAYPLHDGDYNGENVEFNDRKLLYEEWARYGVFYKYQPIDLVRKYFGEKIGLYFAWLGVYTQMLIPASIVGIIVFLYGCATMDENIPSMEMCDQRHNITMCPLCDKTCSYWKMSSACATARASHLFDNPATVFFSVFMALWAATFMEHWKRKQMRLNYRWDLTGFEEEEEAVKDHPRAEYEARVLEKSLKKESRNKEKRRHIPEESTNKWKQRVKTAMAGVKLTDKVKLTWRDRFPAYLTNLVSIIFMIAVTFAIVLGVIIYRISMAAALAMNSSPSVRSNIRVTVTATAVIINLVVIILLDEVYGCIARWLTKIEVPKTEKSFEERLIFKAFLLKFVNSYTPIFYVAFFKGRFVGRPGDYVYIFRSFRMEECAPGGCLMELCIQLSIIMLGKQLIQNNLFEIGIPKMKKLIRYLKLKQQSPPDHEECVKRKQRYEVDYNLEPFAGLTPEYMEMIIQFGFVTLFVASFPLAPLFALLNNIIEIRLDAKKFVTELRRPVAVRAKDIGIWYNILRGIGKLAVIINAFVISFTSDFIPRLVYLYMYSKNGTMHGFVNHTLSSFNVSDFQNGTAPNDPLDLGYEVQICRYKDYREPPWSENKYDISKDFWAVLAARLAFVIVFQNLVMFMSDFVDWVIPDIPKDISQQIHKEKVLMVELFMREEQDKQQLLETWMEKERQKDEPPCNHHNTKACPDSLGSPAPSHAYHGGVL
O=C(O)c1cc([N+](=O)[O-])ccc1NCCCc1ccccc1: 26%
OC(c1cc(C(F)(F)F)nc2c(C(F)(F)F)cccc12)C1CCCCN1 (centres unmarked): 61.6%
CCc1oc2ccccc2c1C(=O)c1cc(Br)c(O)c(Br)c1: 89.3%
C=CCc1ccc(O)c(-c2ccc(O)c(CC=C)c2)c1: 58.5%
Oc1c(Cl)cc(Cl)c(Cl)c1Cc1c(O)c(Cl)cc(Cl)c1Cl: 31.8%
O=C(Nc1ccc([N+](=O)[O-])cc1Cl)c1cc(Cl)ccc1O: 48.1%
CC/C(=C(\c1ccccc1)c1ccc(OCCN(C)C)cc1)c1ccccc1: 21.6%
O=C(O)c1cccnc1Nc1cccc(C(F)(F)F)c1: 27.1%
C=CCc1ccc(O)c(-c2cc(CC=C)ccc2O)c1: 27.6%
O=S(=O)(O)c1cc(N=C=S)ccc1C=Cc1ccc(N=C=S)cc1S(=O)(=O)O: 27.1%
N#Cc1c(C(F)(F)F)cc(O)n2c1nc1ccccc12: 79.5%
Oc1ccc(Cl)cc1Cc1cc(Cl)ccc1O: 41.8%
CNCCC(Oc1ccc(C(F)(F)F)cc1)c1ccccc1 (centres unmarked): 57.1%

Series 3 — read-out: cell-free assay; method: competition with immobilised ligand; tested at: 1 µM; measurement: remaining binding
SMILES: O=C(Nc1cccnn1)N1CCC(=Cc2cccc(Oc3ccc(C(F)(F)F)cn3)c2)CC1
CDK8 (Homo sapiens, UniProt P49336): 100%
PAK3 (Homo sapiens, UniProt O75914): 73%
MAST1 (Homo sapiens, UniProt Q9Y2H9): 100%
MAP3K9 (Homo sapiens, UniProt P80192): 100%
IRAK4 (Homo sapiens, UniProt Q9NWZ3): 97%
Non-receptor tyrosine-protein kinase TYK2, JH2 (TYK2, Homo sapiens, UniProt P29597): 100%
MAP4K4 (Homo sapiens, UniProt O95819): 100%
ERBB2 (Homo sapiens, UniProt P04626): 72%
Tyrosine-protein kinase ABL1, phosphorylated (ABL1, Homo sapiens, UniProt P00519, T315I): 76%
Myosin-IIIb (MYO3B, Homo sapiens, UniProt Q8WXR4): 100%
CSK (Homo sapiens, UniProt P41240): 100%
MAPK9 (Homo sapiens, UniProt P45984): 100%
MAPK14 (Homo sapiens, UniProt Q16539): 100%
ULK3 (Homo sapiens, UniProt Q6PHR2): 100%
TAOK2 (Homo sapiens, UniProt Q9UL54): 100%
Ribosomal protein S6 kinase alpha-1, N-terminal kinase domain (RPS6KA1, Homo sapiens, UniProt Q15418): 100%
PIM3 (Homo sapiens, UniProt Q86V86): 79%
NEK9 (Homo sapiens, UniProt Q8TD19): 100%
CAMKK1 (Homo sapiens, UniProt Q8N5S9): 92%
TSSK1B (Homo sapiens, UniProt Q9BXA7): 82%
GRK4 (Homo sapiens, UniProt P32298): 97%
ACVR1 (Homo sapiens, UniProt Q04771): 92%
PAK6 (Homo sapiens, UniProt Q9NQU5): 100%
CDK3 (Homo sapiens, UniProt Q00526): 100%
MTOR (Homo sapiens, UniProt P42345): 87%

Series 4 — action: inhibitor; tested at: 10 µM; baseline: control; measurement: remaining activity
Target: Diamine acetyltransferase 1 (Homo sapiens, UniProt P21673)
Residues (P21673 1-171): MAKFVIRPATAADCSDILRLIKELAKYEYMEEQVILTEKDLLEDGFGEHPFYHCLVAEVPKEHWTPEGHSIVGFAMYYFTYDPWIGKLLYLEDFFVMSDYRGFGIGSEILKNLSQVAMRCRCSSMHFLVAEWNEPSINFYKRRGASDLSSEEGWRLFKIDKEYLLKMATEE
N[C@@H](CC(=O)O)C(=O)O: 83.9%
COc1cc(C=O)ccc1O: 100%
O=C(/C=C/c1ccc(O)cc1)c1ccc(O)cc1O: 124%
CCCCC[C@H](O)CC(=O)CCc1ccc(O)c(OC)c1: 107%
COC(=O)c1ccc(O)c(OC)c1: 96.5%
COc1ccc(-c2oc3cc(OC)c(OC)c(O)c3c(=O)c2OC)cc1O: 100%
O=C(OCc1ccccc1)c1ccccc1: 88.9%
CC1=CC[C@@](O)(C(C)C)CC1: 99.5%
O=C(O)CCCCCCCC(=O)O: 99.2%
CC(C)=CCc1cc2c(cc1O)oc(=O)c1c3ccc(O)cc3oc21: 102%
COC(=O)C1=CO[C@@H](O[C@@H]2O[C@H](CO)[C@@H](O)[C@H](O)[C@H]2O)[C@@H]2[C@@H](C)[C@@H](O)C[C@H]12: 105%
CC(=O)O[C@@H]1C[C@H]2CC[C@]1(C)C2(C)C: 77.7%
COc1ccc(/C=C/C(=O)c2ccc(OC)cc2)cc1: 84.4%
CC(=O)OC[C@H]1O[C@@H](Oc2ccc(CO)cc2)[C@H](OC(C)=O)[C@@H](OC(C)=O)[C@@H]1OC(C)=O: 68.7%
O=Cc1ccc(CO)o1: 100%

Excerpt of the above (series 4):
CCCCC[C@H](O)CC(=O)CCc1ccc(O)c(OC)c1: 107%
CC(C)=CCc1cc2c(cc1O)oc(=O)c1c3ccc(O)cc3oc21: 102%
O=C(/C=C/c1ccc(O)cc1)c1ccc(O)cc1O: 124%
O=C(O)CCCCCCCC(=O)O: 99.2%
COc1ccc(/C=C/C(=O)c2ccc(OC)cc2)cc1: 84.4%
CC(=O)O[C@@H]1C[C@H]2CC[C@]1(C)C2(C)C: 77.7%
COC(=O)C1=CO[C@@H](O[C@@H]2O[C@H](CO)[C@@H](O)[C@H](O)[C@H]2O)[C@@H]2[C@@H](C)[C@@H](O)C[C@H]12: 105%
O=Cc1ccc(CO)o1: 100%
COC(=O)c1ccc(O)c(OC)c1: 96.5%
N[C@@H](CC(=O)O)C(=O)O: 83.9%
